Results collected from several papers.
Protocols differ between the studies behind these lines. ± gives the spread as reported.
Organism: human respiratory syncytial virus

Nc1ccn([C@@H]2O[C@@](CO)(CCl)[C@@H](O)[C@H]2F)c(=O)n1 — IC90 (viral replication, CPE; HEp-2, A2 passaged with DMSO): 2.28 µM
CC(C)CC(=O)OC[C@H]1O[C@@](C#N)(c2ccc3c(N)ncnn23)[C@H](O)[C@@H]1O — EC50 (viral replication, viral protein ELISA; HEp-2, A2; 5 days): 0.45 ± 0.048 µM
c1csc(-c2nn3c(Cn4cnc5ccccc54)nnc3s2)c1 — EC50 (viral replication; HEp-2, Long): 0.2 µM
O=c1ccn([C@@H]2O[C@](F)(CO)[C@@H](O)[C@H]2O)c(=O)[nH]1 — normalized viral replication (recombinant reporter virus; concentration not given, scale 0 to 100, together with: adenosine 100 µM): 0
c1coc(-c2nn3c(Cn4cnc5ccccc54)nnc3s2)c1 — EC50 (viral replication; HEp-2, Long): 0.7 µM
O=C(N1CCC2(CC1)C[C@H](CN1CCCCS1(=O)=O)CCO2)C1(c2ccccc2)CCCC1 — EC50 (viral replication): > 32 µM
NC(=O)c1ncn([C@@H]2O[C@H](CO)[C@@H](O)[C@H]2O)n1 — IC90 (viral replication, CPE; HEp-2, A2 passaged with DMSO): > 41 µM
N#C[C@@]1(n2ccc(N)nc2=O)O[C@H](CO)[C@@H](O)[C@H]1O — EC50 (viral replication, cell-based): > 20 µM

Repeated from above:
CC(C)CC(=O)OC[C@H]1O[C@@](C#N)(c2ccc3c(N)ncnn23)[C@H](O)[C@@H]1O — EC50 (viral replication, viral protein ELISA; HEp-2, A2; 5 days): 0.45 ± 0.048 µM
